Published values from different studies.
Compare with care: the assays were run in different laboratories. “And” joins repeats or separate records; there may be more than shown. ± gives the spread as reported.
CYP2E1: Cytochrome P450 2E1 (CYP2E1, Homo sapiens, UniProt P05181)
Sequence of UniProt P10632 (whole entry, looked up): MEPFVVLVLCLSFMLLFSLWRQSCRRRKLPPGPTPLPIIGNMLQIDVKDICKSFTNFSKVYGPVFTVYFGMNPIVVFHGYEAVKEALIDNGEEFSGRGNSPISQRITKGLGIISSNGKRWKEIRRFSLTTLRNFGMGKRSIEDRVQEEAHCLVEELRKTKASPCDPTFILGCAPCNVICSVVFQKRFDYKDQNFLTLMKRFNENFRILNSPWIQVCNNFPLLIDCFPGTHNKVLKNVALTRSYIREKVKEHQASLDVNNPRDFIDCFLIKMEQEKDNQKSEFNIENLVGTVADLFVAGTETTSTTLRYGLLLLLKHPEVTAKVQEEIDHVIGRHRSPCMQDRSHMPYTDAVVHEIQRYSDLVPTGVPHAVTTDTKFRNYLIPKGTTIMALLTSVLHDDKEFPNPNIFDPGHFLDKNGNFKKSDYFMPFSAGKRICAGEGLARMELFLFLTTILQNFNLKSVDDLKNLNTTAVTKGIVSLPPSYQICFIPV
Sequence of UniProt P05181 (whole entry, looked up): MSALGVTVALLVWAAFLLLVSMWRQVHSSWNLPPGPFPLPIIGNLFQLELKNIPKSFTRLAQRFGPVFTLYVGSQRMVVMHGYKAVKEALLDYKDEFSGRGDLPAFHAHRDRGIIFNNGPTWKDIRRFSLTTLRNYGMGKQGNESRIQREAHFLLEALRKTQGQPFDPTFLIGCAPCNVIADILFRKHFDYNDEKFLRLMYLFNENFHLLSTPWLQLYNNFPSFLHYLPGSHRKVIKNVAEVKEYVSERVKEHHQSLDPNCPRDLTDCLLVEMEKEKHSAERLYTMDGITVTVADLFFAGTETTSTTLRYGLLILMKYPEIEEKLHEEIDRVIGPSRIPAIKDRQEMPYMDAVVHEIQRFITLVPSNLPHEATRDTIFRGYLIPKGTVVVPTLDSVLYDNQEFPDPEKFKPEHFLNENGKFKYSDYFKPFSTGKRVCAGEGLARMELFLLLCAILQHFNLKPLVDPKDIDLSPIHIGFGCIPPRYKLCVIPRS

With `O=C(O)c1cc(Br)c(O)c(Br)c1` the IC50 was 41 µM (CYP2E1; p-nitrophenol hydroxylation, inhibitor; with additive 100 µM).
`CC(C)Cc1ccc(C(C)C(=O)N[C@@H](CCCCNC(=O)CCOCCOCCOCCOCCOCCOCCNC(=O)CN2CCN(CC(=O)[O-])CCN(CC(=O)[O-])CCN(CC(=O)[O-])CC2)C(=O)Nc2cccc3c(C(=O)NCC(=O)N4CC(F)(F)C[C@H]4C#N)ccnc23)cc1.[177Lu+3]` (stereo partly drawn) gave a tracer uptake of 3.5 %ID/g (U-87 MG tumour model; host not given, tumour; 48 h, tumour-bearing).
`CN1CCCNC(=O)c2cccc(c2)C(=O)NCCCN(C)CCCNc2cccc3c2C(=O)c2cccc(c2C3=O)NCCC1` gave a viability of 94.7% (SAS; cell growth or viability, CCK-8; 50 nM, 48 h).
For `COc1ccc2c(c1)C(C)(C)C(/C=C/C1=C(Oc3ccc(C(=O)NCCCCOc4cc(CN(Cc5ccccn5)Cc5ccccn5)cc(CN(Cc5ccccn5)Cc5ccccn5)c4)cc3)C(=C/C=C3/N(CCCCS(=O)(=O)[O-])c4ccc(OC)cc4C3(C)C)CCC1)=[N+]2CCCCS(=O)(=O)[O-].O=[N+]([O-])[O-].O=[N+]([O-])[O-].[99Tc+].[C-]#[O+].[C-]#[O+].[C-]#[O+].[Zn+2]`, the tissue uptake was 52.5 %ID/g and 32.8 %ID/g and 33.5 %ID/g and 55.8 %ID/g (Staphylococcus aureus; BALB/c mice, myositis, large intestine and caecum; intravenous, 0.74 MBq, 12 h post-injection).
The translation activity of `Cc1cc(NC(=O)C23CC4CC(C2)CC(n2cnc([N+](=O)[O-])n2)(C4)C3)no1` is reported as 112% and 120% (Trypanosoma cruzi; reporter mRNA translation, inhibitor, refers to: Renilla luciferase mRNA; cell-free extract; concentration not given, test 2; relative to: positive over negative control).
`CCCC[C@H](NC(C)=O)C(=O)N[C@@H](CO)C(=O)N[C@H](C(=O)N1CCC[C@H]1C(=O)N[C@]1(C)CCCCCCC=CCCC[C@@](C)(C(=O)N[C@@H](Cc2ccccc2)C(=O)N[C@@H](CCCCN)C(=O)N[C@@H](CCCNC(=N)N)C(=O)N[C@@H](CC(C)C)C(=O)N[C@@H](CCC(N)=O)C(N)=O)NC(=O)[C@H](CCCNC(=N)N)NC(=O)[C@H](CCCC)NC(=O)[C@H](CC(C)C)NC(=O)[C@H](CCCNC(=N)N)NC(=O)[C@H](CCCNC(=N)N)NC(=O)[C@H](CCCNC(=N)N)NC1=O)[C@@H](C)O` gave a remaining peptide of 38% and 41.6% (proteinase K; LC-MS; 25 µM, 553.6 min, pH 7.4).
`O=C1C2CC3CC1CC(C(=O)N1CCN(c4ccc([N+](=O)[O-])c5ncccc45)CC1)(C3)C2` — result for “revertant colony count”: 25 colonies/well (Escherichia coli; Ames test; WP2 uvrA pKM101; 0.02 µg/well, with S9 activation).
`C=C(NC(=O)c1csc(-c2nc3c(cc2O)-c2nc(cs2)C(=O)NC(C(C)O)C(=O)NC(=C(C)OC)c2nc(cs2)C(=O)NC2c4nc(cs4)C(=O)NC(COC(=O)c4c5c6c(cccc6n4O)COC(=O)C(OC4CC(C)(O)C(N(C)C)C(C)O4)C2OC5)c2nc-3cs2)n1)C(N)=O` (stereo not drawn) has a remaining activity of over 70% (CYP2E1; enzyme activity, inhibitor, substrate cocktail; pooled human liver microsomes; up to 50 µM, pH 7.4).
The tracer uptake of `COc1cccc(OC)c1-c1cc(C(=O)NC2(C(=O)O)C3CC4CC(C3)CC2C4)nn1-c1ccc(C(=O)N(C)CCOCCN(C)C(=O)[C@H](CCCCNC(=O)[C@H](CC(C)C)NC(=O)C2OC2C(=O)O)NC(=O)CN2CCN(CC(=O)[O-])CCN(CC(=O)[O-])CCN(CC(=O)[O-])CC2)cc1C(C)C.[177Lu+3]` (mixture of isomers) is reported as 0.45 %ID/g (HT-29 tumour model; host not given, bone; 24 h, tumour-bearing).
`CNC(=O)C1CCCN(C(=O)C2CC3CCC2N3C(=O)[C@@H]2C[C@@H](O)CN2C(=O)NCc2cccc(Cl)c2F)C1` (mixture of isomers) has a remaining activity of 58% and 73.2% and 102% (Cytochrome P450 2C8 (CYP2C8, Homo sapiens, UniProt P10632); preincubation with NADPH; human; 0.206 µM; relative to: negative control).
The tracer uptake of `COc1cccc(OC)c1-c1cc(C(=O)NC2(C(=O)O)C3CC4CC(C3)CC2C4)nn1-c1ccc(C(=O)N(C)CCCN(C)CCCN(C)C(=O)[C@H](CCCCNC(=O)[C@H](CC(C)C)NC(=O)C2OC2C(=O)O)NC(=O)CN2CCN(CC(=O)[O-])CCN(CC(=O)[O-])CCN(CC(=O)[O-])CC2)cc1C(C)C.[177Lu+3]` (mixture of isomers) is reported as 0.081 %ID/g (HT-29 tumour model; host not given, stomach; 72 h, tumour-bearing).
The translation activity of `CCOC(=O)c1c(NC(=O)Cn2cnc([N+](=O)[O-])n2)sc2c1CCCC2` is reported as 107% and 97.4% and 102% and 90.3% (Trypanosoma cruzi; reporter mRNA translation, inhibitor, refers to: capped polyadenylated Renilla luciferase mRNA; cell-free extract; concentration not given; relative to: positive over negative control).
`N#C[C@@H]1CC(F)(F)CN1C(=O)CNC(=O)c1ccnc2c(NC(=O)[C@H](CCCCNC(=O)CCOCCOCCOCCOCCOCCOCCNC(=O)CN3CCN(CC(=O)[O-])CCN(CC(=O)[O-])CCN(CC(=O)[O-])CC3)NC(=O)CCCc3ccc(I)cc3)cccc12.[177Lu+3]` gave a tracer uptake of 2.13 %ID/g (U-87 MG tumour model; host not given, liver; 4 h, tumour-bearing).
The revertants of `CCN(CC)CC#CCNc1ccnc2cc(Cl)ccc12` is reported as 15 revertants/well and 19 revertants/well (Salmonella typhimurium; mini-Ames test; TA100; 62.5 µg/well, with rat liver S9).
For `N#C[C@@H]1CCCN1C(=O)CNC(=O)c1ccnc2ccc(OCCCN3CCN(C(=O)CCc4ccc5c(c4)CN4CCN(Cc6cc(CCC(=O)O)ccc6O)CC(=O)[O][Al-]([18F])([O]C(=O)C4)[O]5)CC3)cc12` (stereo partly drawn), the tracer uptake was 0.89 %ID/g (U-87 MG tumour model; host not given, muscle; 2 h, tumour-bearing).
`CC(C)OCCOCc1ccc(OCC(O)CN(N=O)C(C)C)cc1` (stereo not drawn) — result for “revertant fold increase”: 3.4 fold (Salmonella typhimurium; Ames test; TA100; 5000 µg/plate, 30 % hamster S9; relative to: solvent control).
The tracer uptake of `N#C[C@@H]1CC(F)(F)CN1C(=O)CNC(=O)c1ccnc2c(NC(=O)[C@@H](N)CCCCNC(=O)CCOCCOCCOCCOCCOCCOCCNC(=O)CN3CCN(CC(=O)[O-])CCN(CC(=O)[O-])CCN(CC(=O)[O-])CC3)cccc12.[177Lu+3]` is reported as 0.67 %ID/g (U-87 MG tumour model; host not given, tumour; 24 h, tumour-bearing).
For `O=C1NC2(CC2)COc2ncc(F)cc2[C@H]2COCCN2c2ccn3ncc1c3n2`, the revertant colonies was 12 ± 3 revertants/plate (Salmonella typhimurium; Ames test; TA98; 50 µg/plate, 48 h, added: without S9).

For quick reference, copied from above:
`CCCC[C@H](NC(C)=O)C(=O)N[C@@H](CO)C(=O)N[C@H](C(=O)N1CCC[C@H]1C(=O)N[C@]1(C)CCCCCCC=CCCC[C@@](C)(C(=O)N[C@@H](Cc2ccccc2)C(=O)N[C@@H](CCCCN)C(=O)N[C@@H](CCCNC(=N)N)C(=O)N[C@@H](CC(C)C)C(=O)N[C@@H](CCC(N)=O)C(N)=O)NC(=O)[C@H](CCCNC(=N)N)NC(=O)[C@H](CCCC)NC(=O)[C@H](CC(C)C)NC(=O)[C@H](CCCNC(=N)N)NC(=O)[C@H](CCCNC(=N)N)NC(=O)[C@H](CCCNC(=N)N)NC1=O)[C@@H](C)O` gave a remaining peptide of 38% and 41.6% (proteinase K; LC-MS; 25 µM, 553.6 min, pH 7.4).
`O=C1C2CC3CC1CC(C(=O)N1CCN(c4ccc([N+](=O)[O-])c5ncccc45)CC1)(C3)C2` — result for “revertant colony count”: 25 colonies/well (Escherichia coli; Ames test; WP2 uvrA pKM101; 0.02 µg/well, with S9 activation).
